Published values collected from several papers.
Compare with care: the assays were run in different laboratories.

| Compound | target or system | assay | system | conditions | how to read | endpoint | value |
| --- | --- | --- | --- | --- | --- | --- | --- |
| N=C(N)NCCC[C@H](NC(=O)CN)C(=O)N[C@@H](Cc1c[nH]c2ccccc12)C(=O)N[C@@H](CCCNC(=N)N)C(=O)N[C@@H](Cc1c[nH]c2ccccc12)C(=O)N[C@@H](Cc1c[nH]c2ccccc12)C(=O)N[C@@H](Cc1c[nH]c2ccccc12)C(=O)N[C@@H](CCCNC(=N)N)C(=O)N[C@@H](Cc1c[nH]c2ccccc12)C(=O)N[C@@H](CCCNC(=N)N)C(=O)N[C@@H](Cc1ccccc1)C(N)=O | Candida albicans | broth microdilution | CGMCC 2.209, RPMI 1640-MOPS | 48 h, 30 °C, with: KCl 4.5 mM | – | MIC | 8 µM |
| CCN1CCN(C(=O)N[C@@H](C(=O)N[C@@H]2C(=O)N3[C@@H]2SC(C)(C)[C@@H]3C(=O)O)c2ccccc2)C(=O)C1=O | Escherichia coli | broth microdilution | isolate IU 356 A, KPC-3, VIM-1, TEM | no clavulanic acid | – | MIC | > 200 µg/mL |
| CC[C@H](C)[C@H](NC(=O)[C@H](Cc1c[nH]c2ccccc12)NC(=O)[C@@H](N)CCCCN)C(=O)N[C@H]1CSSC[C@@H](C(=O)N[C@@H](CCCNC(=N)N)C(=O)N[C@@H](Cc2c[nH]c3ccccc23)C(=O)N[C@@H](CCCNC(=N)N)C(=O)O)NC(=O)[C@H](Cc2ccc(O)cc2)NC(=O)[C@H]([C@@H](C)O)NC(=O)[C@H]([C@@H](C)CC)NC(=O)[C@H](Cc2c[nH]c3ccccc23)NC(=O)[C@H](CCCNC(=N)N)NC(=O)CNC(=O)[C@H](CCCNC(=N)N)NC(=O)[C@H](Cc2ccc(O)cc2)NC(=O)[C@H](Cc2c[nH]c3ccccc23)NC(=O)[C@H](CC(C)C)NC(=O)[C@H](CCCNC(=N)N)NC(=O)[C@H](CCCNC(=N)N)NC1=O | Corynebacterium glutamicum | – | ATCC 13032 | 37 °C | – | MIC | 0.78 µM |
| [O-][N+]1=C(c2ccc(Cl)cc2)C2=NCCN2c2ccccc21 | Bacteroides spp. and Parabacteroides distasonis | – | – | – | – | MIC | 0.06 to 0.125 µg/mL |
| CN[C@H](CC(C)C)C(=O)N[C@H]1C(=O)N[C@@H](CC(N)=O)C(=O)N[C@H]2C(=O)NC3C(=O)N[C@H](C(=O)N[C@H](C(=O)NCCC[N+](C)(C)C)c4cc(O)cc(O)c4-c4cc3ccc4O)[C@H](O)c3ccc(c(Cl)c3)Oc3cc2cc(c3OC2OC(CO)C(O)[C@H](O)[C@@H]2O[C@H]2CC(C)(NCc3ccc(-c4ccc(Cl)cc4)cc3)[C@H](O)[C@H](C)O2)Oc2ccc(cc2Cl)[C@H]1O (some centres unmarked) | Enterococcus faecium | – | VanA VRE ATCC BAA-2317 | no LTA, with: Mg2+ 100 µg/mL | – | MIC | 0.3 µg/mL |
| CC1(C)SC2C(NC(=O)C(NC(=O)C3=C(O)CN(c4ccccc4)C3=O)c3ccccc3)C(=O)N2C1C(=O)O (centres unmarked) | Escherichia coli | broth microdilution | JW0790-2 fiu deletion mutant | ferric iron uptake gene | – | MIC | 100 µg/mL |
| CC(C)[C@H](NC(=O)[C@H](CCCNC(=N)N)NC(=O)[C@H](Cc1c[nH]c2ccccc12)NC(=O)[C@H](CCCNC(=N)N)NC(=O)[C@H](Cc1c[nH]c2ccccc12)NC(=O)[C@H](Cc1c[nH]c2ccccc12)NC(=O)[C@H](Cc1c[nH]c2ccccc12)NC(=O)[C@H](CCCNC(=N)N)NC(=O)[C@H](Cc1c[nH]c2ccccc12)NC(=O)[C@H](CCCNC(=N)N)NC(=O)CN)C(N)=O | Candida albicans | broth microdilution | alveolar fluid isolate, RPMI 1640-MOPS | 48 h, 30 °C | – | MIC | 8 µM |
| CN1CC(O)=C(C(=O)NC(C(=O)NC2C(=O)N3C2SC(C)(C)C3C(=O)O)c2ccccc2)C1=O (centres unmarked) | Escherichia coli | broth microdilution | ATCC 35218, low-level TEM-1 | with: clavulanic acid 6 µg/mL | – | MIC | > 200 µg/mL |
| N=C(N)NCCC[C@H](NC(=O)CN)C(=O)N[C@@H](Cc1c[nH]c2ccccc12)C(=O)N[C@@H](CCCNC(=N)N)C(=O)N[C@@H](Cc1c[nH]c2ccccc12)C(=O)N[C@@H](Cc1c[nH]c2ccccc12)C(=O)N[C@@H](Cc1c[nH]c2ccccc12)C(=O)N[C@@H](CCCNC(=N)N)C(=O)N[C@@H](Cc1c[nH]c2ccccc12)C(=O)N[C@@H](CCCNC(=N)N)C(=O)N[C@@H](Cc1c[nH]c2ccccc12)C(N)=O | Candida albicans | broth microdilution | 58288, RPMI 1640-MOPS | 48 h, 30 °C | – | MIC | 8 µM |
| CC[C@H](C)[C@@H]1NC(=O)[C@@H]2CCCN2C(=O)[C@H](CC(C)C)NC(=O)[C@H](CC(C)C)NC(=O)CNC(=O)[C@@H](NC(=O)[C@@H](NC(=O)[C@H](CC(=O)O)NC(=O)CNC(=O)[C@@H](NC(=O)[C@H](C)NC(=O)CNC(=O)[C@H](CCCCN)NC(=O)[C@H](CC(C)C)NC(=O)[C@H](CC(C)C)NC(=O)[C@H](CCCCN)NC(=O)CNC(=O)[C@@H](NC(=O)[C@@H](N)CC(C)C)C(C)C)C(C)C)C(C)C)CSSC[C@@H](C(=O)O)NC1=O | – | RNA-seq, measured: Fgd3 | mouse, traumatic brain injury model, frontal cortex and hippocampus | dose not given | relative to: TBI alone | log2 fold change | -1.58 |
| CC1(C)SC2C(NC(=O)C(NC(=O)C3=C(O)C4CCCN4C3=O)c3ccccc3)C(=O)N2C1C(=O)O (centres unmarked) | Escherichia coli | broth microdilution | isolate IU, CTX-M-14, TEM-1 | with: clavulanic acid 6 µg/mL | – | MIC | > 200 µg/mL |
| C[C@@H](O)[C@H]1C(=O)N2C(C(=O)O)=C(SCCN=CN)C[C@H]12 | Klebsiella pneumoniae | broth microdilution | KPC-127 producing | – | – | MIC | 0.5 µg/mL |
| CC1(C)S[C@@H]2[C@H](NC(=O)[C@H](N)c3ccccc3)C(=O)N2[C@H]1C(=O)O | Escherichia coli | broth microdilution | isolate IU 356 A, KPC-3, VIM-1, TEM | no clavulanic acid | – | MIC | > 200 µg/mL |
| C[C@@H](O)[C@H](NC(=O)[C@H](Cc1c[nH]c2ccccc12)NC(=O)[C@H](Cc1c[nH]c2ccccc12)NC(=O)[C@H](Cc1c[nH]c2ccccc12)NC(=O)[C@@H](NC(=O)[C@H](Cc1c[nH]c2ccccc12)NC(=O)[C@H](CCCNC(=N)N)NC(=O)[C@@H](N)CCCNC(=N)N)[C@@H](C)O)C(=O)N[C@@H](Cc1c[nH]c2ccccc12)C(=O)N[C@@H](CCCNC(=N)N)C(=O)N[C@@H](CCCNC(=N)N)C(N)=O | Lactiplantibacillus plantarum | – | 7469, probiotic strain | 24 h, 37 °C, tested up to 128 µM | – | MIC | 128 µM |
| CC1(C)SC2C(NC(=O)C(NC(=O)C3=C(O)C(Cc4ccc([N+](=O)[O-])cc4)NC3=O)c3ccccc3)C(=O)N2C1C(=O)O (centres unmarked) | Escherichia coli | broth microdilution | JW0790-2 fiu deletion mutant | ferric iron uptake gene | – | MIC | 25 µg/mL |
| CC[C@H](C)[C@H](NC(=O)[C@H](CCCNC(=N)N)NC(=O)[C@H](Cc1c[nH]c2ccccc12)NC(=O)[C@H](CCCNC(=N)N)NC(=O)[C@H](Cc1c[nH]c2ccccc12)NC(=O)[C@H](Cc1c[nH]c2ccccc12)NC(=O)[C@H](Cc1c[nH]c2ccccc12)NC(=O)[C@H](CCCNC(=N)N)NC(=O)[C@H](Cc1c[nH]c2ccccc12)NC(=O)[C@H](CCCNC(=N)N)NC(=O)CN)C(N)=O | Candida albicans | broth microdilution | SP3902, RPMI 1640-MOPS | 48 h, 30 °C | – | MIC | 4 µM |
| CC[C@H](C)[C@H](NC(=O)[C@H](CCCCN)NC(=O)[C@@H](NC(=O)[C@H](Cc1ccc(O)cc1)NC(=O)[C@H](CCCCN)NC(=O)[C@H](CCCCN)NC(=O)CNC(=O)[C@H](CCCCN)NC(=O)[C@@H](NC(=O)[C@H](C)NC(=O)[C@H](CC(C)C)NC(=O)[C@H](Cc1c[nH]c2ccccc12)NC(=O)CNC(=O)[C@@H](NC(=O)[C@H](Cc1ccccc1)NC(=O)[C@H](CCCCN)NC(=O)[C@H](CC(C)C)NC(=O)[C@H](Cc1ccccc1)NC(=O)[C@H](C)NC(=O)CNC(=O)[C@@H](N)CCSC)C(C)C)[C@@H](C)O)C(C)C)C(=O)N[C@@H](C)C(=O)N[C@@H](Cc1c[nH]c2ccccc12)C(=O)N[C@@H](CC(=O)O)C(=O)N[C@@H](Cc1c[nH]cn1)C(=O)N[C@@H](CCCCN)C(=O)NCC(=O)N[C@H](C(=O)N[C@H](C(=O)N[C@@H](CCSC)C(=O)N[C@@H](CCCCN)C(=O)N[C@@H](Cc1c[nH]c2ccccc12)C(=O)N[C@@H](CC(C)C)C(=O)N[C@@H](CC(N)=O)C(=O)N[C@@H](C)C(=O)NCC(=O)N[C@@H](CCC(N)=O)C(=O)N[C@H](C(=O)N[C@@H](Cc1ccccc1)C(=O)N[C@H](C(=O)N[C@@H](Cc1c[nH]c2ccccc12)C(=O)N[C@H](C(=O)N[C@@H](Cc1ccc(O)cc1)C(=O)N[C@@H](CCC(=O)O)C(=O)N[C@@H](CCC(N)=O)C(=O)N[C@H](C(=O)N[C@@H](CCCCN)C(=O)N[C@@H](CCCCN)C(=O)N[C@@H](CC(C)C)C(=O)N[C@@H](Cc1c[nH]c2ccccc12)C(=O)N[C@H](C(=O)O)[C@@H](C)O)[C@@H](C)CC)C(C)C)[C@@H](C)O)[C@@H](C)O)[C@@H](C)CC)[C@@H](C)O | Pediococcus damnosus | – | CECT 4797 | 32 °C, non-formylated synthetic | – | MIC | 0.5 µg/mL |
| CC(C)C[C@H](NC(=O)[C@H](CCCNC(=N)N)NC(=O)[C@H](Cc1c[nH]c2ccccc12)NC(=O)[C@H](CCCNC(=N)N)NC(=O)[C@H](Cc1c[nH]c2ccccc12)NC(=O)[C@H](Cc1c[nH]c2ccccc12)NC(=O)[C@H](Cc1c[nH]c2ccccc12)NC(=O)[C@H](CCCNC(=N)N)NC(=O)[C@H](Cc1c[nH]c2ccccc12)NC(=O)[C@H](CCCNC(=N)N)NC(=O)CN)C(N)=O | Candida albicans | broth microdilution | CGMCC 2.209, RPMI 1640-MOPS | 48 h, 30 °C, with: MgCl2 1 mM | – | MIC | 64 µM |
| CC(C)(C)OCC1NC(=O)C(C(=O)NC(C(=O)NC2C(=O)N3C2SC(C)(C)C3C(=O)O)c2ccccc2)=C1O (centres unmarked) | Escherichia coli | broth microdilution | isolate IU 356 A, KPC-3, VIM-1, TEM | no clavulanic acid | – | MIC | > 200 µg/mL |
| N=C(N)NCCC[C@H](NC(=O)[C@H](Cc1c[nH]c2ccccc12)NC(=O)[C@H](CCCNC(=N)N)NC(=O)[C@H](Cc1c[nH]c2ccccc12)NC(=O)[C@H](Cc1c[nH]c2ccccc12)NC(=O)[C@H](Cc1c[nH]c2ccccc12)NC(=O)[C@H](CCCNC(=N)N)NC(=O)[C@H](Cc1c[nH]c2ccccc12)NC(=O)[C@@H](N)CCCNC(=N)N)C(=O)N[C@@H](Cc1ccccc1)C(N)=O | Candida albicans | broth microdilution | 58288, RPMI 1640-MOPS | 48 h, 30 °C | – | MIC | 8 µM |
| N=C(N)NCCC[C@H](NC(=O)CCCCCNC(=O)[C@H](CCCNC(=N)N)NC(=O)[C@H](CCCNC(=N)N)NC(=O)CCCCCNC(=O)[C@H](CCCNC(=N)N)NC(=O)[C@H](CCCNC(=N)N)NC(=O)CCCCCNC(=O)[C@H](CCCNC(=N)N)NC(=O)[C@H](CCCNC(=N)N)NC(=O)CCCCCNC(=O)[C@@H](N)CCCNC(=N)N)C(=O)NCCCCCC(=O)NCCC(=O)O | Escherichia coli | – | ATCC 25922 | 1 h, 37 °C, after 90% fetal bovine serum | – | MIC | > 192 µM |
| CC(C)[C@H](NC(=O)[C@H](CCCNC(=N)N)NC(=O)[C@H](Cc1c[nH]c2ccccc12)NC(=O)[C@H](CCCNC(=N)N)NC(=O)[C@H](Cc1c[nH]c2ccccc12)NC(=O)[C@H](Cc1c[nH]c2ccccc12)NC(=O)[C@H](Cc1c[nH]c2ccccc12)NC(=O)[C@H](CCCNC(=N)N)NC(=O)[C@H](Cc1c[nH]c2ccccc12)NC(=O)[C@@H](N)CCCNC(=N)N)C(N)=O | Candida albicans | broth microdilution | alveolar fluid isolate, RPMI 1640-MOPS | 48 h, 30 °C | – | MIC | 16 µM |
| CC[C@H](C)[C@H](NC(=O)[C@H](CC(C)C)NC(=O)[C@@H]1CCCN1C(=O)[C@@H](N)CC(C)C)C(=O)N[C@H](C(=O)N[C@@H](Cc1ccccc1)C(=O)N[C@@H](CC(C)C)C(=O)N[C@@H](CCCNC(=N)N)C(=O)N[C@@H](CC(N)=O)C(=O)N[C@@H](CCCNC(=N)N)C(=O)N[C@@H](CC(C)C)C(=O)N[C@@H](CCCCN)C(=O)N[C@@H](Cc1ccc(O)cc1)C(=O)O)[C@@H](C)CC | Staphylococcus haemolyticus | – | – | – | – | MIC | 100 µg/mL |

For quick reference, copied from above:
| Compound | target or system | assay | system | conditions | how to read | endpoint | value |
| --- | --- | --- | --- | --- | --- | --- | --- |
| CN[C@H](CC(C)C)C(=O)N[C@H]1C(=O)N[C@@H](CC(N)=O)C(=O)N[C@H]2C(=O)NC3C(=O)N[C@H](C(=O)N[C@H](C(=O)NCCC[N+](C)(C)C)c4cc(O)cc(O)c4-c4cc3ccc4O)[C@H](O)c3ccc(c(Cl)c3)Oc3cc2cc(c3OC2OC(CO)C(O)[C@H](O)[C@@H]2O[C@H]2CC(C)(NCc3ccc(-c4ccc(Cl)cc4)cc3)[C@H](O)[C@H](C)O2)Oc2ccc(cc2Cl)[C@H]1O (some centres unmarked) | Enterococcus faecium | – | VanA VRE ATCC BAA-2317 | no LTA, with: Mg2+ 100 µg/mL | – | MIC | 0.3 µg/mL |
